Results gathered from unrelated publications.
A part holds a random share of what one study measured.

Sample 1 — technique: Sort-seq; refers to: YFP reporter; medium: E. coli; notes: PhoQ-PhoP variant library; together with: 10 µM Mg2+; reference: high Mg2+ state; direction: higher = stronger signaling
Substance: PhoQ, residues 284 288 289 292 302 303 NLSRDF
It gave 7.32 for fold induction (PhoP, residues 12 14 15 18 19 GMGLL (Escherichia coli, UniProt P23836)).
It gave 11 for fold induction (PhoP, residues 12 14 15 18 19 QQAYL (Escherichia coli, UniProt P23836)).
The fold induction was 0.769 (PhoP, residues 12 14 15 18 19 LFHKL (Escherichia coli, UniProt P23836)).

Sample 2 — technique: RNA Bind-n-Seq; molecule type: RNA; medium: in vitro; concentration: 200 nM; notes: whole 134-nt RNA, ends assumed; together with: 150 mM KCl; reference: input library; direction: higher = stronger binding
Target: Ras GTPase-activating protein-binding protein 1, full length (G3BP1, Homo sapiens, UniProt Q13283)
Sequence of UniProt Q13283 (whole entry, looked up): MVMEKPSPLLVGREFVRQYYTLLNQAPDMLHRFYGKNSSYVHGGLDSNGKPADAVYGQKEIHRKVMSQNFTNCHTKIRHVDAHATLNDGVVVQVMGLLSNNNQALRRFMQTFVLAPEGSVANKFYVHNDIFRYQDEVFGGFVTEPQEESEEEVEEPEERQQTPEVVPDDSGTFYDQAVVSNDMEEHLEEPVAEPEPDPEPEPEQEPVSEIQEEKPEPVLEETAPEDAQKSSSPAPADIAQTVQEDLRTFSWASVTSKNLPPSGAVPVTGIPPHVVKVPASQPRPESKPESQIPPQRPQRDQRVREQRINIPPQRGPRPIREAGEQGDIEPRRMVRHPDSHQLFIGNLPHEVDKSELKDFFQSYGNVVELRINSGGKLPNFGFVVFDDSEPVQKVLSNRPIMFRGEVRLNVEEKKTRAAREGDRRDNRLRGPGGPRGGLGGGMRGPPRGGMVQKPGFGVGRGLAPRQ
`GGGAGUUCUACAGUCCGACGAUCAAGUCCUGUGCUACACAUCGUAUGUACCGAAUCGGGGAGGGGAGGGGUUUUUGGGGAAAGUAUUAUGUUACGCCGUUCGGAUCUGCACUUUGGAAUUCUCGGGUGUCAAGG` has a log2 enrichment of 0.628.
With `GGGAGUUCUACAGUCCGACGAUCUGGGAGGUGGAUUUUGUUUAUUUUUUUAGCUCAUUUCCAGGGGUGGGAAUUUUUUUUUAAUAUGUGUCAUGAAUAAAGUUGUAUUUGAAAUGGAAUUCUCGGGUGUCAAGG` the log2 enrichment was -0.0186.
With `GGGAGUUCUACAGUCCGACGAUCUCAAGUCCUGUGCUACACAUCGUAUGUACCGAAUCGGGGAAGGGAAGGGGAAGGAAAGUAUUAUGUUACGCCGUUCGGAUCUGCACUUCCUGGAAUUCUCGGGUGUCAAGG` the log2 enrichment was 0.112.
For `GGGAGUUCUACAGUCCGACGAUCACCAUGCAGGUGGGCAUCUUUGGGAAUUGGGGCAAGGGGGGGAUAGGGAGGGGGGUAACACUUUGGGAACAGGUGGUCCCAGGUCGUUUCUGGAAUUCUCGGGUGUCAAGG`, the log2 enrichment was 1.45.
`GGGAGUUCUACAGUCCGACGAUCUACCAUGGUGGAAGUUCCCGUUCUCGUAGCAGUAUUUUCCAUGCAGGAAAAAGCCAAGGACUACAUGAAAACAACAUACCUGACAAUGAAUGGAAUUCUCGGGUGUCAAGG` has a log2 enrichment of 0.88.
`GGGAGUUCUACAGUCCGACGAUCCAAGUCCUGUGCUACACAUCGUAUGUACCGAAUCGGAAAGGAAAGGUUUUUUUGGAAAGUAUUAUGUUACGCCGUUCGGAUCUGCACUUCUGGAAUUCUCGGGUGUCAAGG` gave a log2 enrichment of -1.3.
For `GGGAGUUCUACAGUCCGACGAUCUCAAGUCCUGUGCUACACAUCGUAUGUACCGAAUCGGAAAAAGGUUUUUGGUGGAAAGUAUUAUGUUACGCCGUUCGGAUCUGCACUUCCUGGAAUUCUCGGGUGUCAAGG`, the log2 enrichment was -1.14.
`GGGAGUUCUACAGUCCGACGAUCCCUGUGCUACACAUCGUAUGUACCGAAUCGGGGCCCCCCGGGCCCCCCGGGCCCCCCGGGGAAAGUAUUAUGUUACGCCGUUCGGAUCUGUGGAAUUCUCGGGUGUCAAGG` has a log2 enrichment of -0.684.
The log2 enrichment of `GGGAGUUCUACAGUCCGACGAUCGUCCUGUGCUACACAUCGUAUGUACCGAAUCGGGUUUUUUGGUUUUUUGGUUUUUUGGAAAGUAUUAUGUUACGCCGUUCGGAUCUGCACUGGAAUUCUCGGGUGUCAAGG` is reported as -1.29.

Sample 3 — technique: protein binding microarray; molecule type: double-stranded DNA, one strand shown; medium: in vitro; concentration: not given; reference: not given; direction: higher = stronger binding
Target: Histone acetyltransferase KAT6A, winged helix 1, GST fusion (KAT6A, Homo sapiens, UniProt Q92794, residues 1-85)
Notes: 8-mer, flanks averaged, mean of 2 arrays, mostly near background
Residues (chain): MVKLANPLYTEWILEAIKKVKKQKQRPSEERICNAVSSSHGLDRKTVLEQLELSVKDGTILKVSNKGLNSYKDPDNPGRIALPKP
For `ACGGACAG`, the E-score was 0.123.
With `CCCGGCAC` the E-score was 0.242.
With `GGTGATCA` the E-score was -0.14.
With `CGCAAATA` the E-score was -0.0456.
`ACACCCCA` gave an E-score of -0.237.
The E-score of `ACCGAGAA` is reported as -0.0348.
`GAATATCA` has an E-score of -0.0569.
With `GCGACTTA` the E-score was 0.21.
The E-score of `CCATAGCC` is reported as 0.00227.
With `CTTCGATC` the E-score was -0.0562.
With `AGTCTGCC` the E-score was -0.0934.
For `CTACCTTC`, the E-score was -0.0832.

Sample 4 — technique: RNA Bind-n-Seq; molecule type: RNA; medium: in vitro; concentration: 365 nM; reference: no-protein control; direction: higher = stronger binding
Target: RNA binding protein fox-1 homolog 2, RRM domain, GST-SBP tag (RBFOX2, Homo sapiens, UniProt O43251-10, residues 100-194)
Notes: natural RNA segment, single round, ends assumed
Residues (chain): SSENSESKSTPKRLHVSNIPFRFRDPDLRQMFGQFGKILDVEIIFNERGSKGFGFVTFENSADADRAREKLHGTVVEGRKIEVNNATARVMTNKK
`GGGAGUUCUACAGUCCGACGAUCUCUCCUGCCUACUCACGAUAAAUAAUCGGCCCACAGCUCCCACCCCACCCCCUUCAGUGCCCACCAACAUCCCAUUGCCCUGGUUAUAUUCUCACGGGCAGUAGCUGUGGUGGAAUUCUCGGGUGCCAA`: “RBNS enrichment (R)” 0.232.
For `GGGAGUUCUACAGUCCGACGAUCAGGUCUGUGUGCCCAUCAGCAGGUUCCCAUGGCUGUCACUGCCCACUCAUUUCCACAGUUAGAUACGGAUGUGUUGAUGUAUUUCGUCUAGUUUAUUUGGCUCAGUCCACUGGAAUUCUCGGGUGCCAA`, “RBNS enrichment (R)” read 0.985.
`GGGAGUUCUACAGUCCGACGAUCCCAGCACUGUGUUCUGCGUUUGGUCUCAUACCUGCGUCUACCUUCCAUCUGUGUCCAGCGGCCCCGGCUCCAGCCCAGCCAGCACUCUGCAGGGUCACACGCACCGUGUCUGGAAUUCUCGGGUGCCAA`: “RBNS enrichment (R)” 0.507.
`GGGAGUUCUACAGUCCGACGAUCAAGCAUAUCUACCCAUGGCGGAAAAUGAAGUCAGAAAGAUUUGUAGUGACAUUAGGCAGAAAUGGCCAGUCAAACACAUAGCAGUGUUCCAUAGACUUGGUAGAAUGGUCUGGAAUUCUCGGGUGCCAA` — result for “RBNS enrichment (R)”: 0.426.
Under “RBNS enrichment (R)”, `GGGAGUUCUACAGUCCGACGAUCUCUCAAUGAAGCCAGCUCACAGUGCUGUGUGCCCCGGUCACCUAGCAAGCUGCCGAACCAAAAGAAUUUGCACCCCGCUGCGGGCCCACGUGGUUGGGGCCCUGCCCUGGUGGAAUUCUCGGGUGCCAA` is recorded as 0.574.
`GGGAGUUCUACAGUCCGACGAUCAUGAUUUAGUUUUGUUAUUGCAUGUCUGUGUUAAGUAUUUUACAUUUGAGAUUGGAAUUAUUAGACAAAUCUUCCAAAGAUGCACUUUAGGAAGUUGCUAUUGGCCACAUUGGAAUUCUCGGGUGCCAA`: “RBNS enrichment (R)” 2.15.
Under “RBNS enrichment (R)”, `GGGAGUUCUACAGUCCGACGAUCCUUACAGAAGAAGUGGCCCUCCAUAGACAUGUGUAGCAUCAAAACACAAAGGCCCACACUUCCUGACGGAUGCCAGCUUGGGCACUGCUGUCUACUGACCCCAACCCUUGUGGAAUUCUCGGGUGCCAA` is recorded as 1.05.
`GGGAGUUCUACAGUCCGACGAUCUAACAUCCUUCCAAUUUUAUUCACAUAUAAUGGGAAAUUUUGAAUUGCCAGUUUGAAGACUGUUCUCCUAAAGUGUUCAACCUGCACUUCUUACAACCAAGGUAGUUUGUUGGAAUUCUCGGGUGCCAA`: “RBNS enrichment (R)” 0.308.

Some of these lines once more (sample 3):
The E-score of `CCATAGCC` is reported as 0.00227.
With `CTTCGATC` the E-score was -0.0562.
With `AGTCTGCC` the E-score was -0.0934.
